Assay results collected from several papers.
pIC50: −log10 of the molar value.
Tumor necrosis factor receptor superfamily member 9/Nectin-4: Tumor necrosis factor receptor superfamily member 9/Nectin-4 (Homo sapiens, UniProt Q07011+Q96NY8)
Chain of UniProt Q07011 (whole entry, looked up): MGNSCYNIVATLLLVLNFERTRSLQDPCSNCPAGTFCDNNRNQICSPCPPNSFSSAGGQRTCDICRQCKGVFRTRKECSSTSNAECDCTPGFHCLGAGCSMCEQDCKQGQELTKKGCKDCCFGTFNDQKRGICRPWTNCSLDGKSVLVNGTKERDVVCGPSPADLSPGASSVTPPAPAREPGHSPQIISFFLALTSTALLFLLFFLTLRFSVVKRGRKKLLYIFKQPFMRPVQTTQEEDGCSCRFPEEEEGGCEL
Chain of UniProt Q96NY8 (whole entry, looked up): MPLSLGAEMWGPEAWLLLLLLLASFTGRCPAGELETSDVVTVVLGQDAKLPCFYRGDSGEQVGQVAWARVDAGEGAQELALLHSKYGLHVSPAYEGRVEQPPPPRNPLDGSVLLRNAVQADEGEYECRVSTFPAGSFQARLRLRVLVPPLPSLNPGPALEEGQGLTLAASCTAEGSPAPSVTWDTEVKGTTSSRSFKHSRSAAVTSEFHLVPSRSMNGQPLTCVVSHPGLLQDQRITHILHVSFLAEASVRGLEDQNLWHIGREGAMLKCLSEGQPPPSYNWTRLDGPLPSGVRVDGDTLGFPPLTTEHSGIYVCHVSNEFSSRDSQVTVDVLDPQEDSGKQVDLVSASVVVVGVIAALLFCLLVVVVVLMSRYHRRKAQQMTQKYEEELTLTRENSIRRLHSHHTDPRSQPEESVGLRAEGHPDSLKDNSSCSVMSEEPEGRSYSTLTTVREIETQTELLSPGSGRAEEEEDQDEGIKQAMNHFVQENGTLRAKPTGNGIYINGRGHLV
ABCG2: Broad substrate specificity ATP-binding cassette transporter ABCG2 (ABCG2, Homo sapiens, UniProt Q9UNQ0)
Chain of UniProt Q9UNQ0 (whole entry, looked up): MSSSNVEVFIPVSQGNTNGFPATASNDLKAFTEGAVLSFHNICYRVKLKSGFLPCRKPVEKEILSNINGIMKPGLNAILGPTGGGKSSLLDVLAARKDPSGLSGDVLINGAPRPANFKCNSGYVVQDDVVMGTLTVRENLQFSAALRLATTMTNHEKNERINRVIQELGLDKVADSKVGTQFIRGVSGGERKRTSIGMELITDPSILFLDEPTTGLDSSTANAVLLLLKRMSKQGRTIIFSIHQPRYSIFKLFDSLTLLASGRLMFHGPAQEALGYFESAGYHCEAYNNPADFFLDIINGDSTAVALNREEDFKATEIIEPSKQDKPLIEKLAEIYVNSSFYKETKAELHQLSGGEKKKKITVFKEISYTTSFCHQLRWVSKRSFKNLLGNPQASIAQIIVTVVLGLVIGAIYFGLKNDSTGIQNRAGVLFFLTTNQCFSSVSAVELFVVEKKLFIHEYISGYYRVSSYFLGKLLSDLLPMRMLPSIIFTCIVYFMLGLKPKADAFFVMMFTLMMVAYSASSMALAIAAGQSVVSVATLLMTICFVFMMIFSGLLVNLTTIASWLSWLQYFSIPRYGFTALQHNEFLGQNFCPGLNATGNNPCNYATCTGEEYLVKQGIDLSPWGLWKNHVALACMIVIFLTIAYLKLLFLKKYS
Chain of UniProt Q9NPD5 (whole entry, looked up): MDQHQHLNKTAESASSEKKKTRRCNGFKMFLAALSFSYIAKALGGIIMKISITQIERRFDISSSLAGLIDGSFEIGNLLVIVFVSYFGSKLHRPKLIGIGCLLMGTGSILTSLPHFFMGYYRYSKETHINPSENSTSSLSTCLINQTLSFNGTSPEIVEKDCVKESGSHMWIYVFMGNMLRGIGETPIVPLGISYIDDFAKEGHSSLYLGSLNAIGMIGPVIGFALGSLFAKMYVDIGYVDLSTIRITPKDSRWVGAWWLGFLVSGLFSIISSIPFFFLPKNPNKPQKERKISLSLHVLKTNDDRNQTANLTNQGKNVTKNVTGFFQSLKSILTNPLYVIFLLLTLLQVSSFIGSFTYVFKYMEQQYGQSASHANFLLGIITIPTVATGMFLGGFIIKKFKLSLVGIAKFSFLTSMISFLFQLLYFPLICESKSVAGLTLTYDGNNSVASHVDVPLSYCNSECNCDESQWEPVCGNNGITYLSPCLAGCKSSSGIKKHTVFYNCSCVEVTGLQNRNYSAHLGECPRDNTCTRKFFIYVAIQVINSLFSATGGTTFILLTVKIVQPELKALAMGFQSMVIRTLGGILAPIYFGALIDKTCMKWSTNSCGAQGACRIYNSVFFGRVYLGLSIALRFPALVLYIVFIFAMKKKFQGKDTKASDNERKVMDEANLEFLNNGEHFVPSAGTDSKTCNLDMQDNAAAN
Chain of UniProt P46109 (whole entry, looked up): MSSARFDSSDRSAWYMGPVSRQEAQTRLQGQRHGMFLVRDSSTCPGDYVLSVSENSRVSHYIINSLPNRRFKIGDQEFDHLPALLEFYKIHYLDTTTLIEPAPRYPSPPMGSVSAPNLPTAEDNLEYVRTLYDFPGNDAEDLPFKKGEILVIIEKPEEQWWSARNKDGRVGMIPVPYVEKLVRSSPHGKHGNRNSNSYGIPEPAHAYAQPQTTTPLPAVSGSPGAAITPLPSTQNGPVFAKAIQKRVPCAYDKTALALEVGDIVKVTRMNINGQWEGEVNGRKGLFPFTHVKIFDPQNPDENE

Structure (SMILES)	tested on	assay	system	setting	scale	measurement	value
CCCC[C@@H]1NC(=O)[C@H](Cc2ccc(O)cc2)NC(=O)[C@@H](C)N(C)C(=O)[C@H](CC(=O)O)NC(=O)[C@H](C)NC(=O)[C@H](Cc2ccccc2)NC(=O)[C@@H]2CSCCC(=O)N3CN(CN(C3)C(=O)CCSC[C@H](NC(C)=O)C(=O)N[C@@H](CC(C)(C)C)C(=O)N3CCC[C@H]3C(=O)N[C@@H](CCC(=O)O)C(=O)N[C@H](CCCCNC(=O)CCc3cn(CCOCCOCCOCCOCCOCCC(=O)N[C@H]4CSCCC(=O)N5CN6CN(C5)C(=O)CCSC[C@H](NC(=O)[C@@H](CC(=O)O)NC(=O)[C@H](Cc5cccc7ccccc57)NC(=O)[C@@H]5CCCN5C4=O)C(=O)N[C@@H](CCSC)C(=O)N[C@@H](CCCCNC(=N)N)C(=O)N[C@@H](CC(=O)O)C(=O)N[C@@H](Cc4c[nH]c5ccccc45)C(=O)N[C@@H](CO)C(=O)N[C@@H]([C@@H](C)O)C(=O)N4CCC[C@H]4C(=O)N4C[C@H](O)C[C@H]4C(=O)N[C@@H](Cc4c[nH]c5ccccc45)C(=O)N[C@H](C(N)=O)CSCCC6=O)nn3)C(=O)N3CCC[C@H]3C(=O)N[C@@H](Cc3ccc(O)cc3)C(=O)N2)C(=O)CCSC[C@@H](C(N)=O)NC1=O	Tumor necrosis factor receptor superfamily member 9/Nectin-4	reporter gene, agonist, luciferase reporter	CD137 Jurkat reporter with HT-1376	6 h, geometric mean	baseline: wells without compound	Emax	42 fold
O=S1OCC2C(CO1)C1(Cl)C(Cl)=C(Cl)C2(Cl)C1(Cl)Cl (stereo not shown)	ABCG2	inhibition, inhibitor		0.03 to 100 µM, added: sulfasalazine 10 µM		BCRP ATPase activity	inhibited
CC1(C)[C@H](C(=O)OCc2cccc(Oc3ccccc3)c2)[C@@H]1C=C(Cl)Cl	CES2 human cytosolic			0.1 µM, age 1 year		enzyme contribution	5.73%
CC(C)CN(C[C@@H](O)[C@H](Cc1ccccc1)NC(=O)O[C@H]1CO[C@H]2OCC[C@H]21)S(=O)(=O)c1ccc(N)cc1	ABCG2	transport, inhibitor		100 µM, 5 (unit not given), pH 7, added: CCK-8		inhibition	49.3%
CCCC[C@@H]1NC(=O)[C@H](Cc2ccc(O)cc2)NC(=O)[C@@H]2CCCN2C(=O)[C@H](CC(=O)O)NC(=O)[C@H](C)NC(=O)[C@H](Cc2ccccc2)NC(=O)[C@@H]2CSCCC(=O)N3CN(CN(C3)C(=O)CCSC[C@@H](C(N)=O)NC1=O)C(=O)CCSCCC(=O)N[C@@H](CC(C)(C)C)C(=O)N1CCC[C@H]1C(=O)N[C@@H](CCC(=O)O)C(=O)N[C@H](CCCCNC(=O)CCc1cn(CCOCCOCCOCCN(CCOCCOCCOCCC(=O)N[C@H]3CSCCC(=O)N4CN5CN(C4)C(=O)CCSC[C@H](NC(=O)[C@@H](CC(=O)O)NC(=O)[C@H](Cc4cccc6ccccc46)NC(=O)[C@@H]4CCCN4C3=O)C(=O)N[C@@H](CCSC)C(=O)N[C@@H](CCCCNC(=N)N)C(=O)N[C@@H](CC(=O)O)C(=O)N[C@@H](Cc3c[nH]c4ccccc34)C(=O)N[C@@H](CO)C(=O)N[C@@H]([C@@H](C)O)C(=O)N3CCC[C@H]3C(=O)N3C[C@H](O)C[C@H]3C(=O)N[C@@H](Cc3c[nH]c4ccccc34)C(=O)N[C@H](C(N)=O)CSCCC5=O)CCOCCOCCOCCn3cc(CCC(=O)NCCCC[C@H]4NC(=O)[C@H](CCC(=O)O)NC(=O)[C@@H]5CCCN5C(=O)[C@H](CC(C)(C)C)NC(=O)CCSCCC(=O)N5CN6CN(C5)C(=O)CCSC[C@H](NC(=O)[C@H](Cc5ccc(O)cc5)NC(=O)[C@@H]5CCCN5C4=O)C(=O)N[C@@H](Cc4ccccc4)C(=O)N[C@@H](C)C(=O)N[C@@H](CC(=O)O)C(=O)N4CCC[C@H]4C(=O)N[C@@H](Cc4ccc(O)cc4)C(=O)N[C@@H](CCCC)C(=O)N[C@H](C(N)=O)CSCCC6=O)nn3)nn1)C(=O)N1CCC[C@H]1C(=O)N[C@@H](Cc1ccc(O)cc1)C(=O)N2	Tumor necrosis factor receptor superfamily member 9/Nectin-4	reporter gene, agonist, luciferase reporter	CD137 Jurkat reporter with HT-1376	6 h, geometric mean	baseline: wells without compound	Emax	67 fold
O=c1cc(-c2ccccc2)oc2c1ccc1ccccc12	cytochrome P450 human	enzyme activity, inhibitor	pooled human liver microsomes	120 min, pH 7.4		pIC50	< 5.00
C[C@H]1CN(c2n[nH]c3nc(N[C@H]4CC[C@H](NS(=O)(=O)CCC(F)(F)F)CC4)ncc23)CCO1	Crk-like protein (Homo sapiens, UniProt P46109)	competitor, Kinobeads competition	human cell extract	0.8 µM	baseline: vehicle	relative abundance	1.18
CCCC[C@@H]1NC(=O)[C@H](Cc2ccc(O)cc2)NC(=O)[C@@H]2CCCN2C(=O)[C@H](CC(=O)O)NC(=O)[C@H](C)NC(=O)[C@H](Cc2ccccc2)NC(=O)[C@@H]2CSCCC(=O)N3CN(CN(C3)C(=O)CCSC[C@@H](C(=O)N[C@@H](C)C(N)=O)NC1=O)C(=O)CCSC[C@H](NC(C)=O)C(=O)N[C@@H](CC(C)(C)C)C(=O)N1CCC[C@H]1C(=O)N[C@@H](CCC(=O)O)C(=O)N[C@H](CCCCNC(=O)CCc1cn(CCOCCOCCOCCN(CCOCCOCCOCCn3cc(CCC(=O)NCCCC[C@H]4NC(=O)[C@H](CCC(=O)O)NC(=O)[C@@H]5CCCN5C(=O)[C@H](CC(C)(C)C)NC(=O)[C@@H](NC(C)=O)CSCCC(=O)N5CN6CN(C5)C(=O)CCSC[C@H](NC(=O)[C@H](Cc5ccc(O)cc5)NC(=O)[C@@H]5CCCN5C4=O)C(=O)N[C@@H](Cc4ccccc4)C(=O)N[C@@H](C)C(=O)N[C@@H](CC(=O)O)C(=O)N4CCC[C@H]4C(=O)N[C@@H](Cc4ccc(O)cc4)C(=O)N[C@@H](CCCC)C(=O)N[C@H](C(=O)N[C@@H](C)C(N)=O)CSCCC6=O)nn3)CCOCCOCCOCC(=O)NCCCNC(=O)Cn3cc(CCC(=O)NCCCNC(=O)COCCOCCOCCN(CCOCCOCCOCCn4cc(CCC(=O)NCCC(=O)N[C@H]5CSCCC(=O)N6CN7CN(C6)C(=O)CCSC[C@H](NC(=O)[C@@H](CC(=O)O)NC(=O)[C@H](Cc6cccc8ccccc68)NC(=O)[C@@H]6CCCN6C5=O)C(=O)N[C@@H](CCSC)C(=O)N[C@@H](CCCCNC(=N)N)C(=O)N[C@@H](CC(=O)O)C(=O)N[C@@H](Cc5c[nH]c6ccccc56)C(=O)N[C@@H](CO)C(=O)N[C@@H]([C@@H](C)O)C(=O)N5CCC[C@H]5C(=O)N5C[C@H](O)C[C@H]5C(=O)N[C@@H](Cc5c[nH]c6ccccc56)C(=O)N[C@H](C(N)=O)CSCCC7=O)nn4)CCOCCOCCOCCn4cc(CCC(=O)NCCC(=O)N[C@H]5CSCCC(=O)N6CN7CN(C6)C(=O)CCSC[C@H](NC(=O)[C@@H](CC(=O)O)NC(=O)[C@H](Cc6cccc8ccccc68)NC(=O)[C@@H]6CCCN6C5=O)C(=O)N[C@@H](CCSC)C(=O)N[C@@H](CCCCNC(=N)N)C(=O)N[C@@H](CC(=O)O)C(=O)N[C@@H](Cc5c[nH]c6ccccc56)C(=O)N[C@@H](CO)C(=O)N[C@@H]([C@@H](C)O)C(=O)N5CCC[C@H]5C(=O)N5C[C@H](O)C[C@H]5C(=O)N[C@@H](Cc5c[nH]c6ccccc56)C(=O)N[C@H](C(N)=O)CSCCC7=O)nn4)nn3)nn1)C(=O)N1CCC[C@H]1C(=O)N[C@@H](Cc1ccc(O)cc1)C(=O)N2	Tumor necrosis factor receptor superfamily member 9/Nectin-4	reporter gene, agonist, luciferase reporter	CD137 Jurkat reporter with HT-1376	6 h, geometric mean	baseline: wells without compound	Emax	48 fold
CN(C)C(=O)COC(=O)Cc1ccc(OC(=O)c2ccc(NC(=N)N)cc2)cc1	SLCO1B3 (Homo sapiens, UniProt Q9NPD5)	transport, inhibitor	transiently transfected cells	100 µM, 10 (unit not given), added: CCK-8		inhibition	83.4%
Cc1ccc(Nc2ccnc(N3CCC(C(=O)NCCCc4ccccc4)CC3)n2)cc1	Vero-E6	CellTiter-Glo ATP		concentration not given, 72 h, retest 8-point duplicates	baseline: DMSO 0%, hyamine -100%, more negative, more toxic	cytotoxicity efficacy	-33.4%
CCOC(=O)C1=C[C@@H](OC(CC)CC)[C@H](NC(C)=O)[C@@H](N)C1	ABCG2	transport, inhibitor		100 µM, 5 (unit not given), pH 7, added: CCK-8		inhibition	7.2%
CCN(CC)CCNC(=O)c1ccc(-c2nc(CN3CCc4ccccc43)c(C)o2)cc1	Vero-E6	CellTiter-Glo ATP		concentration not given, 72 h, retest 8-point duplicates	baseline: DMSO 0%, hyamine -100%, more negative, more toxic	cytotoxicity efficacy	-10%
Cc1c(COC(=O)[C@@H]2[C@H](/C=C(\Cl)C(F)(F)F)C2(C)C)cccc1-c1ccccc1 (racemic)	human CYP2C8	IVIVE from expressed enzymes	human, liver, in vivo scaled	0.1 µM, age-specific		enzyme contribution to CLint	6.91%

Repeated from above:
Structure (SMILES)	tested on	assay	system	setting	scale	measurement	value
Cc1ccc(Nc2ccnc(N3CCC(C(=O)NCCCc4ccccc4)CC3)n2)cc1	Vero-E6	CellTiter-Glo ATP		concentration not given, 72 h, retest 8-point duplicates	baseline: DMSO 0%, hyamine -100%, more negative, more toxic	cytotoxicity efficacy	-33.4%
